Assay results collected from several papers.
Parts stem from different laboratories: compare values within a part only. Changes are numbered by the printed parent chain.

Block 1
Target: Sal-like protein 4, full length isoform A (SALL4, Homo sapiens, UniProt Q9UJQ4, residues 1-1053)
UniProt Q9UJQ4, sequence (whole entry, looked up): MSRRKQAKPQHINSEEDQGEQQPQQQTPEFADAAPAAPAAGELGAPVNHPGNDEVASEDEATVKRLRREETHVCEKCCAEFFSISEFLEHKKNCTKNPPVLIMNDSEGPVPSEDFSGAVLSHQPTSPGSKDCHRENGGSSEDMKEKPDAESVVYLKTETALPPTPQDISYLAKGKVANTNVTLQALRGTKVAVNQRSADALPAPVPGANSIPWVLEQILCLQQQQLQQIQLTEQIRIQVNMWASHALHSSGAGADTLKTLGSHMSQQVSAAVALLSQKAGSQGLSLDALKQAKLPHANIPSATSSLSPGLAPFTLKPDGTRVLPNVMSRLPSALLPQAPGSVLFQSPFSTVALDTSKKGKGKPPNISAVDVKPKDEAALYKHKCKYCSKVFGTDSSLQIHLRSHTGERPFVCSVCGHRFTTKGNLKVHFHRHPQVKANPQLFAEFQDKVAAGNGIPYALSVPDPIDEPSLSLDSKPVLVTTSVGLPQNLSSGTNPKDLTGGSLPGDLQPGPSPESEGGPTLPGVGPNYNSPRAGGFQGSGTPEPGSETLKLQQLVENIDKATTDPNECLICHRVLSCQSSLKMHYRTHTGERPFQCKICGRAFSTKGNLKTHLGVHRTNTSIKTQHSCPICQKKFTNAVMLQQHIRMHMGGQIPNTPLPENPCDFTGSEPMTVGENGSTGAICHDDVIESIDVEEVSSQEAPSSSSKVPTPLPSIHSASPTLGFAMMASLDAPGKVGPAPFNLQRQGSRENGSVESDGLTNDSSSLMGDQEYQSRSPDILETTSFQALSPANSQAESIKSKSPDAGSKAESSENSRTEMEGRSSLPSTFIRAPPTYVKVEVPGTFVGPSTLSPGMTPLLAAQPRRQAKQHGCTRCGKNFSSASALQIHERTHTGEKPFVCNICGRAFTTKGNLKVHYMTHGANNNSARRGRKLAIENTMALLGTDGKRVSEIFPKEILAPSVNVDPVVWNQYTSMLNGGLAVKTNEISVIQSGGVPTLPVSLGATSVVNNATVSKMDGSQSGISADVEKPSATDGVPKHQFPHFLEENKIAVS
Technique: universal PBM
Molecule type: double-stranded DNA, one strand shown
Sample: in vitro
Concentration: 600 nM
Setting: 8-mer, flanks averaged, mean of replicates
Reading: higher = stronger binding
For `AGTCATAG`, the E-score was 0.168.
`GGCTAGAC` gave an E-score of -0.172.
The E-score of `TCGGAACA` is reported as -0.0249.
`ATGCCCTC` has an E-score of -0.0656.
The E-score of `ACGTCTGG` is reported as -0.0402.
With `GGTTGTAA` the E-score was 0.145.
`CCGCATAG` has an E-score of 0.0215.
`CTCTGGTA` has an E-score of 0.101.
For `CAGATAAG`, the E-score was 0.0841.
`GAGTTTAA` gave an E-score of 0.136.
For `ATCAGCCC`, the E-score was -0.143.

Block 2
Target: Histone acetyltransferase KAT6A, winged helix 2, GST fusion (KAT6A, Homo sapiens, UniProt Q92794, residues 85-181)
Technique: protein binding microarray
Molecule type: double-stranded DNA, one strand shown
Sample: in vitro
Concentration: not given
Setting: 8-mer, flanks averaged, mean of 2 arrays, mostly near background
Reference: not given
Reading: higher = stronger binding
Target sequence (chain): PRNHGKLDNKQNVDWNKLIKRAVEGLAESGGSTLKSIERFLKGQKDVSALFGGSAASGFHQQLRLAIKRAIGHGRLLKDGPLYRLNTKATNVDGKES
The E-score of `ACCTTGCA` is reported as -0.00449.
For `AAGGGTTG`, the E-score was 0.0218.
For `CAATTCCG`, the E-score was 0.116.
`CGGAGCCA` gave an E-score of 0.0208.
`AGATGTTG` has an E-score of -0.218.
For `AGTCTTCG`, the E-score was -0.0394.

Block 3
Target: CCND2, cyclin fold, Cln2 fusion (human)
Technique: yeast growth competition, sequencing
Sample: yeast
Setting: weak parent motif
Reference: not given
Reading: higher = stronger binding
Starting sequence: SLBP docking peptide (human); ARYKRKLLINDFG
`N10M` — result for “normalised enrichment score”: 0.0883.
`K6Y` — result for “normalised enrichment score”: -0.109.
Under “normalised enrichment score”, `K6W` is recorded as 0.636.
Under “normalised enrichment score”, `Y3L` is recorded as 0.897.
Under “normalised enrichment score”, `R5H` is recorded as -0.063.
For `Y3P`, “normalised enrichment score” read 0.0711.

Other studies, line by line
For `PhoQ, residues 284 288 289 292 302 303 SASVAL`, the fold induction was 4.7 (PhoP, residues 12 14 15 18 19 AQCLL (Escherichia coli, UniProt P23836); Sort-seq, measured: YFP reporter; E. coli; PhoQ-PhoP variant library, added: 10 µM Mg2+; reference: high Mg2+ state, higher = stronger signaling).

For quick reference, copied from above (block 1):
`GGCTAGAC` gave an E-score of -0.172.
